Results of several laboratories.
A part holds a random share of what one study measured.

Set 1
Target: RNA binding protein fox-1 homolog 2, RRM domain, GST-SBP tag (RBFOX2, Homo sapiens, UniProt O43251-10, residues 100-194)
Method: RNA Bind-n-Seq
Molecule type: RNA
Sample: in vitro
Concentration: 365 nM
Setting: natural RNA segment, single round, ends assumed
Baseline: no-protein control
Reading: higher = stronger binding
Construct (chain): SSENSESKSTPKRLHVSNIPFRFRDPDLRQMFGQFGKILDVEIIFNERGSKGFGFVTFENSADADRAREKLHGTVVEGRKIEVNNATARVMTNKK
`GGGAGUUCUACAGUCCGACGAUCGUGGAAGACUACCUACAUUAGCUAUGCAUUUCAAGAGCUCACACUUAUAUUGUGGCAUAUAGUCAACAUGGAAGUAGACCAGCUCUGCUGAUUUGAAAUUUAGAUUUUUUUGGAAUUCUCGGGUGCCAA` — result for “RBNS enrichment (R)”: 0.319.
For `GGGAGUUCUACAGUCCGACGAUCGUGCGCCGCCCUAUAUUGAGGGCUCCAGCUCUCCCUUGGUUUUUGAAAGGGGUUUAUGUAUAAAUAUAUUUUAUGCCUUUUUAUUACAAGUCUUGUUACUCAAUGACUUUUGGAAUUCUCGGGUGCCAA`, “RBNS enrichment (R)” read 0.652.
For `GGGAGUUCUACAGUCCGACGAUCGUCCAGAAGCCCUGGCACAGAAGUUCUUGGCCAGUCUCAUGUCACAUGUCACGAUGUCAGAUUCAACAGGAGAACUCUGUGCCCUUCCUAUAGACACCAAAUGUCUGGCAUGGAAUUCUCGGGUGCCAA`, “RBNS enrichment (R)” read 0.293.
For `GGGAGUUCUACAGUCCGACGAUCUGUAUAGUAAAUCUAAGUCUUGAUUUUUAACUUUCUAUUGUAAAAAAUAAUAAUAUACAGAGUUUAAUAGAAGGUGAUGUUUUGGUUUUGUUUUCCCAGAGGCUGCCAUAUGGAAUUCUCGGGUGCCAA`, “RBNS enrichment (R)” read 1.09.
Under “RBNS enrichment (R)”, `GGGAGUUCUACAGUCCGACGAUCCCCUAGGGGCCAGGACAGGACCAGUUUACCUCUUUCCAGAUAUGGUGGUUGGAGGGCUGGUUCAGGUGCCCUGGAGGGAAGGGGAAGCCUGUGGCCCUGAUUUGUUCAGAUGGAAUUCUCGGGUGCCAA` is recorded as 0.471.
For `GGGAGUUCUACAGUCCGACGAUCGUCACUAUUGGGUGCAAGGAUAUCAUUGUUGGCUAGAUUCAUUUUGUAUAAUCAUGUAUCCUCUUGUGUGCUGGUAGAGAUUUUAAUCCUGAUUUUUCCAUAAAACAUGAUGGAAUUCUCGGGUGCCAA`, “RBNS enrichment (R)” read 0.506.
`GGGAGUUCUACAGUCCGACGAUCGCACCCCGGAACCGGCGUCGCUGGCGCAUCCUGGGUGGAGGCAGGCCCCGAGCUCGGGGAAGGGGUUUUCCCUUCCUCUCUGACCCAGAUCUGCGCGCGGCCUAGCCCGGUGGAAUUCUCGGGUGCCAA` — result for “RBNS enrichment (R)”: 0.206.
`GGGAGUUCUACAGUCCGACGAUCGCUGAUGAUGCGCAACCCUGCUGACUGUUUCAGUUAAUAUGCUGCACACCACACACUUGUUUAGUGAACCAAAUCUAGAAAGUACCAAGGCAGAGGUAUGCUCCUGCUGUUGGAAUUCUCGGGUGCCAA`: “RBNS enrichment (R)” 0.268.
For `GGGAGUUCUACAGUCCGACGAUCUCCCAAAAUAGUUGUCAGGUUUAAUCAUCAGGCAACACUGCGUAUACCUGUGUGGCUAUCCUCAUCUGCCUGCCCUCUCAUCCCUCGGCUAGAAUGAUGUACUCUACUUUUGGAAUUCUCGGGUGCCAA`, “RBNS enrichment (R)” read 0.578.
Under “RBNS enrichment (R)”, `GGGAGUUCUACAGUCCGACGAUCCCAAGACAGGCAGGGAAAUUCUAAUUUCUCUCUUAAGAAAGUAAAUUUCCACUUCACCAGCAAUAACAAUCAGAGGAGACUUGGCCCUCAGUCCUUGUAUUUCUCUUUUUUGGAAUUCUCGGGUGCCAA` is recorded as 0.364.
Under “RBNS enrichment (R)”, `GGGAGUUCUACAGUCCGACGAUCUCUUAGACUCGAUGCUGUAUAAAAUAUUAUGGGAAAAAAAGAAAAUACGUUAUUUUGCCUCUAAACUUUUAUUGAAGUUUUAUUUGGCAGGAAAAAAAAUUGAAUCUUGGUGGAAUUCUCGGGUGCCAA` is recorded as 1.16.
Under “RBNS enrichment (R)”, `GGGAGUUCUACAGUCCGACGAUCAGUAAAUCCUUUGUAUUCCAGACUUUAGGGCAGAGCCCUGAGGGAGUAUUAUUUUACAUAACCCGUCCUAGAGUAACAUUUUAGGCAACAUUCUUCAUUGCAAGUAAAAGUGGAAUUCUCGGGUGCCAA` is recorded as 0.363.

Set 2
Target: Fragile X messenger ribonucleoprotein 1, C-terminal low-complexity region (Fmr1, Mus musculus, UniProt P35922)
Method: RNA Bind-n-Seq
Molecule type: RNA
Sample: in vitro
Concentration: 200 nM
Setting: whole 134-nt RNA, ends assumed
With: 150 mM LiCl
Baseline: input library
Reading: higher = stronger binding
Each molecule: 7-deaza-guanosine replaces G
`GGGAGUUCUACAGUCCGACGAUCCUCAAGUCCUGUGCUACACAUCGUAUGUACCGAAUCGGGCCGGCCGGCCGGGGAAAGUAUUAUGUUACGCCGUUCGGAUCUGCACUUCCAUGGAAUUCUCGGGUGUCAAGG` gave a log2 enrichment of 0.968.
The log2 enrichment of `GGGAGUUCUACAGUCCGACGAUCCAAGUCCUGUGCUACACAUCGUAUGUACCGAAUCGGGUUUGGGUUUGGGUUUGGGGAAAGUAUUAUGUUACGCCGUUCGGAUCUGCACUUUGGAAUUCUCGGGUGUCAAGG` is reported as -1.53.
With `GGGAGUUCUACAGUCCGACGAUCUCCUGUGCUACACAUCGUAUGUACCGAAUCGGGGCCCCCCGGCCCCCCGGGCCCCCCGGGAAAGUAUUAUGUUACGCCGUUCGGAUCUGCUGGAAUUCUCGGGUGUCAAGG` the log2 enrichment was -0.851.
For `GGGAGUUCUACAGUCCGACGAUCACCAUGCAGGUGGGCAUCUUUGGGAAGUGGGGCAAGGGGGGGAUAGGGAGGGGGGUAACACUUUUGGAACAGGUGGUCCCAGGUCGUUUCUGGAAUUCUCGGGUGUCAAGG`, the log2 enrichment was 1.38.
With `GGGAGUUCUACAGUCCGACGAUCCCUGUGCUACACAUCGUAUGUACCGAAUCGGGGAAAAAGGGGAAAAAAAGGGGAAAGGGGAAAGUAUUAUGUUACGCCGUUCGGAUCUGCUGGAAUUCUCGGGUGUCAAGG` the log2 enrichment was 1.01.
`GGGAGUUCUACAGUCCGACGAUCCCUGUGCUACACAUCGUAUGUACCGAAUCGGGGAAAAAAAGGGGAAAGGGGAAAAAGGGGAAAGUAUUAUGUUACGCCGUUCGGAUCUGCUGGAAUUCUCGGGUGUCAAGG` has a log2 enrichment of 1.05.
The log2 enrichment of `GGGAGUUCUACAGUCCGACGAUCCAAGUCCUGUGCUACACAUCGUAUGUACCGAAUCGGGUGGGUUUUUUUGGGUGGGAAAGUAUUAUGUUACGCCGUUCGGAUCUGCACUUCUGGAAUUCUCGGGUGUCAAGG` is reported as -0.0421.
The log2 enrichment of `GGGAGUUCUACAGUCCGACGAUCUAACUUUAGAGGAGGAUCUGAUGGAUAUGGCAGUGGACGUGGAUUUGGUGAUGGCUAUAAUGGGUAUGGAGGAGGACCUGGAGGUGGCAAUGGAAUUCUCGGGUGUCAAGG` is reported as 0.145.
`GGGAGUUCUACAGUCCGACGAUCCCUGUGCUACACAUCGUAUGUACCGAAUCGGAAAAAAGGGGAAAAAAGGGGAAAAAAGGGGAAAGUAUUAUGUUACGCCGUUCGGAUCUGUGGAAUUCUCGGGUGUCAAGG` gave a log2 enrichment of 0.476.
`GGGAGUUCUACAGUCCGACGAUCCCUGUGCUACACAUCGUAUGUACCGAAUCGGGAAAAAAGGGGAAAAAAGGGAAAAAAGGGAAAGUAUUAUGUUACGCCGUUCGGAUCUGCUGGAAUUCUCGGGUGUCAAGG` gave a log2 enrichment of -0.266.
`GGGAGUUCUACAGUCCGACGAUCUAACUUUAGAGGAGGAUCUGAUGGAUAUGGCAGUGGACGUGGAUUUGGGGAUGGCUAUAAUGGUUAUGGAGGAGGACCUGGAGGUGGCAAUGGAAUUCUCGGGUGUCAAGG` has a log2 enrichment of 0.113.

Set 3
Target: Prothrombin, mature alpha-thrombin (F2, Homo sapiens, UniProt P00734)
Method: aptamer microarray, sandwich
Molecule type: DNA with 2'F-ANA
Sample: in vitro
Concentration: 200 nM
Setting: whole 15-mer aptamer, many near background
With: Cy3 exosite-II aptamer, 400 nM
Reading: higher = stronger binding
Oligonucleotide: GGTTGGTGTGGTTGG
Under “mean fluorescence intensity”, `2'F-ANA at 5 7 9 11 13 14` is recorded as 46.4 a.u.
`2'F-ANA at 3 4 7 9 10 11 12 14`: “mean fluorescence intensity” 201 a.u.
Under “mean fluorescence intensity”, `2'F-ANA at 4 8 12 13` is recorded as 516 a.u.
`2'F-ANA at 2 3 6 7 11` — result for “mean fluorescence intensity”: 629 a.u.
Under “mean fluorescence intensity”, `2'F-ANA at 2 4 10 11 13` is recorded as 78 a.u.
`2'F-ANA at 2 3 4 6 7 11`: “mean fluorescence intensity” 522 a.u.
Under “mean fluorescence intensity”, `2'F-ANA at 1 3 4 6 9 10 13 14 15` is recorded as 53.6 a.u.
For `2'F-ANA at 1 3 7 9 10 12 13`, “mean fluorescence intensity” read 332 a.u.
For `2'F-ANA at 4 5 6 8 9 10 11 12 13`, “mean fluorescence intensity” read 50.4 a.u.
For `2'F-ANA at 4 6 7 8 9 11 14`, “mean fluorescence intensity” read 93.3 a.u.
`2'F-ANA at 2 6 8 9 10 11 12 13 14 15` — result for “mean fluorescence intensity”: 116 a.u.
Under “mean fluorescence intensity”, `2'F-ANA at 2 3 8 10 11 13 15` is recorded as 319 a.u.
For `2'F-ANA at 3 5 7 9 10 13 14`, “mean fluorescence intensity” read 69.7 a.u.
`2'F-ANA at 1 2 3 4 5 6 9 15` — result for “mean fluorescence intensity”: 80.7 a.u.
`2'F-ANA at 1 2 4 5 6 9 10 13 14`: “mean fluorescence intensity” 50.6 a.u.
Under “mean fluorescence intensity”, `2'F-ANA at 3 4 6 7 9 10 11 12 13 15` is recorded as 200 a.u.
Under “mean fluorescence intensity”, `2'F-ANA at 3 6 9 10 13 15` is recorded as 431 a.u.
Under “mean fluorescence intensity”, `2'F-ANA at 2 3 9 10 11 12 13 15` is recorded as 450 a.u.
`2'F-ANA at 1 5 6 8 12 13 14 15`: “mean fluorescence intensity” 51.3 a.u.
`2'F-ANA at 3 4 6 7 8 9 12 13 15`: “mean fluorescence intensity” 860 a.u.
`2'F-ANA at 1 6 7` — result for “mean fluorescence intensity”: 185 a.u.
`2'F-ANA at 4 5 6 8 9 10 13 15` — result for “mean fluorescence intensity”: 45.7 a.u.
`2'F-ANA at 3 5 7 10 11 13`: “mean fluorescence intensity” 55.9 a.u.
`2'F-ANA at 1 2 3 4 6 9 10 12` — result for “mean fluorescence intensity”: 76.4 a.u.
For `2'F-ANA at 2 3 4 5 6 8 9 13 15`, “mean fluorescence intensity” read 58.7 a.u.

Set 4
Target: PABPC1L2, full length, GST fusion (mouse, UniProt A0ABA7IW68)
Method: RNAcompete
Molecule type: RNA
Sample: in vitro
Concentration: 20 nM
Setting: 7-mer, probes averaged, single round
Baseline: mean of 7-mers
Reading: higher = stronger binding
Target sequence (chain): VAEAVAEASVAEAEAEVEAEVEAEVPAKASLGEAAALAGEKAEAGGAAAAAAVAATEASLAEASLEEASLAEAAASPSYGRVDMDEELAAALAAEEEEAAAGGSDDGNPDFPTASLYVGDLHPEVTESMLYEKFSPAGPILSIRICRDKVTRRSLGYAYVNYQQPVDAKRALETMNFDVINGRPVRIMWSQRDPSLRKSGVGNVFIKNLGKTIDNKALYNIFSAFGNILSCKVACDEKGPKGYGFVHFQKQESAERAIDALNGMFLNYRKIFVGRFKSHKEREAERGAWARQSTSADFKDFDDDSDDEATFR
`CUAUGGA` gave a 7-mer Z-score of -0.0645.
The 7-mer Z-score of `GCUAUCG` is reported as -0.182.
With `CGACUUG` the 7-mer Z-score was -0.166.
`AACGCGG` gave a 7-mer Z-score of 0.445.
For `CGCUUCC`, the 7-mer Z-score was -0.34.
The 7-mer Z-score of `AGAAAGC` is reported as 0.729.
`CAGGUCU` gave a 7-mer Z-score of -0.173.
With `CUAACUG` the 7-mer Z-score was -0.195.
For `GCUCGCA`, the 7-mer Z-score was -0.315.
The 7-mer Z-score of `AUACGAU` is reported as -0.0283.
For `AGCGAGA`, the 7-mer Z-score was 0.171.
`GCGCGAU` has a 7-mer Z-score of -0.155.
For `AGUAGGU`, the 7-mer Z-score was 0.0805.
`UAGGUAG` gave a 7-mer Z-score of -0.0428.
With `CAUAUUC` the 7-mer Z-score was -0.115.
`GUUUCUU` gave a 7-mer Z-score of -0.418.

Some of these lines once more (set 3):
Under “mean fluorescence intensity”, `2'F-ANA at 5 7 9 11 13 14` is recorded as 46.4 a.u.
`2'F-ANA at 3 4 7 9 10 11 12 14`: “mean fluorescence intensity” 201 a.u.
Under “mean fluorescence intensity”, `2'F-ANA at 4 8 12 13` is recorded as 516 a.u.
`2'F-ANA at 2 3 6 7 11` — result for “mean fluorescence intensity”: 629 a.u.
Under “mean fluorescence intensity”, `2'F-ANA at 2 4 10 11 13` is recorded as 78 a.u.
`2'F-ANA at 2 3 4 6 7 11`: “mean fluorescence intensity” 522 a.u.
